Published values of several laboratories.
A part holds a random share of what one study measured.

Study 1 — technique: RNA Bind-n-Seq; molecule type: RNA; matrix: in vitro; tested at: 200 nM; notes: whole 134-nt RNA, ends assumed; added: 150 mM LiCl; relative to: input library; reading: higher = stronger binding; all molecules: 7-deaza-guanosine replaces G
Target: Fragile X messenger ribonucleoprotein 1, C-terminal low-complexity region (Fmr1, Mus musculus, UniProt P35922)
Oligonucleotide | log2 enrichment
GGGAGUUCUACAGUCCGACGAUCUGGGGGGUGGAUUUUGUUUAUUUUUUUAGCUCAUUUCCAGGGGUGGGAAUUUUUUUUUAAUAUGUGUCAUGAAUAAAGUUGUUUUUGAAAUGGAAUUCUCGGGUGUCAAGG | 1.47
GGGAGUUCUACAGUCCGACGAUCUGGUGUUAUUUUUGCACUACAAGGGCUCUGAAGACUGCCAGGCUUGAAAUGAAGAACGAUGUCACCUGCCUAUCACAGCCAGGUGACAAUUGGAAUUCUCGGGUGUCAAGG | -4.26
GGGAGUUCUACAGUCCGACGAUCUGGCGCUGUCCUGGACUUGAUGGGGGAUGAAGCCCAGAACCUGACGAGGGGCCGGCAGCAGCUCAAGUGGUGAGUGAUCGAGUGAGCCGCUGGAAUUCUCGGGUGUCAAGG | -1.66
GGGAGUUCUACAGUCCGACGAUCCACAGACAACACGCACCCACACAGACACAGAGGGAAGGGGUUGGGAUGGGGACAGGGUGCACAGCAGGGCGGGGUAGGACCCGAGCCCCUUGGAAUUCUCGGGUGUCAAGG | -0.384
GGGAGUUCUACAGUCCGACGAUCUCCUCAAGUCCUGUGCUACACAUCGUAUGUACCGAAUCGGUGGGUGGGUGGGAAAGUAUUAUGUUACGCCGUUCGGAUCUGCACUUCCAGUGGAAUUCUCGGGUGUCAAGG | 1.13
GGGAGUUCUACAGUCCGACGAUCACCAUGCAGGUGGGCAUCUUUGGGAAGUGGGGCAAGGGGGGGAUAGGGAGGGGGGUAACACUUUGGGAACAGGGGGUCCCAGGUCGUUUCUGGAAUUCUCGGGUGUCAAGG | 1.34
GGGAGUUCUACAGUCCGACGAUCCCUCAAGUCCUGUGCUACACAUCGUAUGUACCGAAUCGGCCGGCCGGGCCGGGAAAGUAUUAUGUUACGCCGUUCGGAUCUGCACUUCCAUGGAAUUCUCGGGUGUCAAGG | 0.747
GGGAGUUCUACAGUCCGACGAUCUUAAGACAGUCAUUUUAAAAUGGUGGCUGAAUUUCCCAACCCACCCCCAAACUAAACACUAAGUUUAAUUUUCAGCUCCUCUGUUGGACAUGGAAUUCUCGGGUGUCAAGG | 0.763

Study 2 — technique: protein-binding microarray; molecule type: double-stranded DNA, one strand shown; matrix: in vitro; tested at: 250 nM; notes: 60-bp whole probe; added: salmon DNA 0.4 mg/ml; relative to: random background probes; reading: higher = stronger binding; constant ends, left off below: GCCTAGCAC … GTCTTGATTCGCTTGACGCTGCTG
Target: Interferon regulatory factor 5, full length, phosphomimetic (IRF5, Homo sapiens, UniProt Q13568-2, residues 1-514, K96S/S451D/S453D/S456D/S462D)
Oligonucleotide | log fluorescence [z-score]
ATATACCTGAATATCTTCAGGTGCTAG | 0.314
CCATCTCTCAAAAGTCACCCTGTGCTA | 0.036
TTTATTTTTTTTATTTATAAGTGCTAG | 1.55
CATACAATTTCAGATTCCAGTGTGCTA | 1.12
TCAGATATGCCAAATCTGACTGTGCTA | -0.0455
CACGGTTTCGGTTTCGGGACGTGCTAG | 10.7
GACGGTTTCCTTTTCCTGAGGTGCTAG | 1.17
TCAAATTTACTTTCTACACTGTGCTAG | 3.44
TTAGGATTCGGGACTGGGTTAGTGCTA | 0.0505
CTAGGTTTCCTACTGCTTTAGTGCTAG | 0.308
GCACTGTGCCTGCTGCCCTTGTGCTAG | -0.817
GACGGTTTCGGTATGGGGACGTGCTAG | 9.51
TTTAAGCTCCTATCTTATGATGTGCTA | 0.331
GTAGGTATCGGGTATCGGTTAGTGCTA | 6.44
TTAGGTTTCCTTATCCTTTGGTGCTAG | 0.948
TCAAAATTCTAATTAGAACTGTGCTAG | 0.323
TCAGGACTGCTTATCCTTTAGTGCTAG | -0.164
GGGCCTAGCCATTATGAGTCTGTGCTA | -0.462
TCTGACCCCCTGCGCGGCAGGTGCTAG | -0.416
TCAGGACTGGACTTTCGGTTAGTGCTA | 9.61
GACGATTGCAGTTCCGAGACGTGCTAG | 0.091
GATGATATCGGGACTGGAGACGTGCTA | 1.08

Study 3 — effect on: peptide binding; molecule type: peptide; matrix: yeast competitive growth; added: B1-Cln2 chimera; reading: direction not given
Molecule | enrichment score
NEGVSNAVRRSLYIRD | -0.547
ESSQLTVQAEFDMSAI | 0.769
AKRSLGFLPQPVPL | -1.02
SPPRGRRLFPPGPAGF | -0.237
SNFFDVIKQLFSDEKN | 0.561
NSMKELNFSHLPSNSV | 0.221
RTEALEQGGLPKKLIF | 0.35
QYQVVDDIVSKLVFDF | 1.34
ATNSSHTDAHEILVSD | 0.384
LENIEPLQVSFAVLSS | 1.17
YLYLLLTQSLWCRV | -0.695
KVRRNLFNQELLSP | -0.325
GTPKRCLDLSNLSSGE | -0.848
QNPCGSKACRRLFGPV | -1.03

Study 4 — technique: RNA Bind-n-Seq; molecule type: RNA; matrix: in vitro; tested at: not given; relative to: input RNA pool; reading: higher = stronger binding
Target: RING finger protein unkempt homolog, zinc fingers 1-6, GST-SBP tag (UNK, Homo sapiens, UniProt Q9C0B0, residues 30-357)
UniProt Q9C0B0, sequence (30-357, looked up): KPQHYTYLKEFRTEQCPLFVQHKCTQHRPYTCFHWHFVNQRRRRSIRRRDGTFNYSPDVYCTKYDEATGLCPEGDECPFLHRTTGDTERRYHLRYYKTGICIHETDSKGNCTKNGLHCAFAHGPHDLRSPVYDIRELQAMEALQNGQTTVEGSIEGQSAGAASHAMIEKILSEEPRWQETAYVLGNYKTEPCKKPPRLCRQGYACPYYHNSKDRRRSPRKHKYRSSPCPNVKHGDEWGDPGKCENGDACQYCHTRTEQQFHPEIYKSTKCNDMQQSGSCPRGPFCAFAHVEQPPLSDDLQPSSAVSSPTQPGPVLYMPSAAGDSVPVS
Notes: RNA with constant flanks, human-mouse chimeric sites, ends assumed
Oligonucleotide | bound/input enrichment [ratio]
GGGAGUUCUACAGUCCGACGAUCAACGUGGAACUAAGUUCCUUGGCCCGGCUUCCCAGCUUGAAUAAACUCCGGAAGUUGGAACUUAGUGAUAAUAUAAUUUCUGGAGGCUUGGAAGUCCUGGCAGAGAAAUGUCCAAAUCUUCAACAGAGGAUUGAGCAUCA | 1.47
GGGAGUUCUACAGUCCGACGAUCGAUGAUAAUCACACAAAUGUGGCACUUUUACAUGACCAGAGUUGUACUUCUUUUCCUGAUUAAUAUUCUCCCUGGAACCACUGGUCAAGGGGAAUCAAGACGACAAGAACCCGGGGACUUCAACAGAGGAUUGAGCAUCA | 0.205
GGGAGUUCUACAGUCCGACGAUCGCACUUCUCAAAUACUGGCCAAAGACUCACAGUCCAAAAGAAGUAAUGUUCUUAAAUGAAUUAGAAGAGAUUUUAGAUGUCAUUGAACCAUCAGAGUUUGUGAAGAUCAUGGAGCCUCUUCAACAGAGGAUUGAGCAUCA | 0.204
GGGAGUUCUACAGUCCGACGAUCGCUCUUGGGAAUGUAAUAAGUGCCUUGGGGGACAAGAGCAAGAGGGCCACCCAUGUCCCUUACAGAGACUCUAAGCUGACAAGACUCUUGCAGGAUUCCCUUGGGGGUAACAGCCAAACCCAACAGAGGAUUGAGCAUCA | 0.133
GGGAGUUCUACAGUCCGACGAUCCAGUCCCGCGACAGCGUUGCAGGACGAUGUGAACAAAAACUCAAAGCGGACCCUCUAUUGUAGUUCUUUUUUUAAAUAAUGUGCUAUUAUUGUUUGUCUUUUUUUUUUUUUUUUUAAAGACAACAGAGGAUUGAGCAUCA | 2.72
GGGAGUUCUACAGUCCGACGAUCUAACCACAUCAAGAUGGUUGGGAAGCUGAAGCAGAACUUACUAUUGGCGUGUCUGGUGAUUAGUUCUGUGACCGUGUUUUACCUGGGCCAGCAUGCCAUGGAAUGCCAUCACCGAAUAGACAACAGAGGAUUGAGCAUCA | 0.186
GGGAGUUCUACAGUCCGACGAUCGUAAUGGACGUCAACACUGCUCUACAAGAGGUUCUGAAGACCGCCCUCAUCCACGAUGGCCUAGCACGUGGCAUACGCGAAGCUGCCAAAGCCUUAGACAAGCGCCAAGCCCAUCUUUGUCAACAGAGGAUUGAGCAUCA | 0.103
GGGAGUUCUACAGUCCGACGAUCCAGCCUCAGAGCCCAGACUUCCUGGAUAUUACCAACCCUAAAGCGGUAUUAGAAAAUGCACUUAGGAACUUCGCCUGUCUGACGACUGGGGAUGUGAUUGCUAUCAACUACAAUGAGAAGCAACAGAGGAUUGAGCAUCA | 0.669
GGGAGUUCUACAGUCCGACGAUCCCCCAAUACCAUUUGCAGGUCUGGAACUGCACUCUCUUUAAAGUUUUACAUGUAUACAUUUUAGGGCUGUAGAUUUAUUUUCCUGGUUUCUUUUCCAAUUGCUGACUUUUGAGCACAGAACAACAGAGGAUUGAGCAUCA | 2.61
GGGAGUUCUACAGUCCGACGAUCCUGUUUUACAGCCACACCAAUCUUGGCAUGUAUUAAGGAAAAAAAAAAUCCCUGUUGAAGUAGUUUUUCCACCUAUCAGCACUGAGUAAAUGCCAUAACUCCGCGGAAAUGGUCUAAAUACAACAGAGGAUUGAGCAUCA | 0.229
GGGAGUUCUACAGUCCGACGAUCCAGCUGCGAGGCCGCGGUUUCCCCCUGGGCCUCCCCAGCAGCAGCCAUGGGCAUCAAAUUUUUAGAAGUUAUCAAACCAUUCUGUGCAGUUCUACCAGAAAUUCAGAAACCGGAAAGGAACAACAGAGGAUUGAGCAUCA | 0.841

For quick reference, copied from above (study 2):
Oligonucleotide | log fluorescence [z-score]
CTAGGTTTCCTACTGCTTTAGTGCTAG | 0.308
TTTATTTTTTTTATTTATAAGTGCTAG | 1.55
TTTAAGCTCCTATCTTATGATGTGCTA | 0.331
GTAGGTATCGGGTATCGGTTAGTGCTA | 6.44
TCAAAATTCTAATTAGAACTGTGCTAG | 0.323
GACGGTTTCCTTTTCCTGAGGTGCTAG | 1.17
CATACAATTTCAGATTCCAGTGTGCTA | 1.12
TCTGACCCCCTGCGCGGCAGGTGCTAG | -0.416
